Assay results of several laboratories.
Target: Serine/threonine-protein kinase RIO1 (RIOK1, Homo sapiens, UniProt Q9BRS2)

| Compound | test | conditions | scale | remaining binding [%] |
| --- | --- | --- | --- | --- |
| CNC(=O)C1CCN(c2cc(C)c(F)cc2NC(=O)c2ccc(-c3cc(O)ccc3C)c(C)c2)CC1 | binding, competition with immobilised ligand | 1 µM |  | 100 |
| Cc1cc(NC(=O)[C@H](O)c2cc(F)cc(F)c2)ccc1-c1cnc(N)c(C(=O)NC(C)C)c1 | binding, competition with immobilised ligand | 1 µM |  | 43 |
| C[C@]1(O)CCCN(c2nc(Nc3ccc(S(=O)(=O)N[C@H]4CC[C@H](CN5CCN(c6ccc(C7CCC(=O)NC7=O)cc6F)CC5)CC4)cc3)ncc2C(F)(F)F)C1 (some centres unmarked) | binding, competition with immobilised ligand | 1 µM |  | 2.7 |
| CCN1CCN(Cc2ccc(C(=O)Nc3ccc(C)c(NCc4cnc5[nH]ccc5c4OC)c3)cc2C(F)(F)F)CC1 | binding, competition with immobilised ligand | 1 µM |  | 95 |
| C=CC(=O)N1CCc2ccc(-n3c(=O)ccc4cnc5ccc(-c6cnn(C)c6)cc5c43)cc21 | KINOMEscan | 1 µM | relative to: DMSO control | 64 |
| Cc1ccc(-c2c(/C=C(\C#N)C(=O)NC(C)C)n(CCCO)c3ncnc(N)c23)cc1 | cell-free assay, competition with immobilised ligand | 1 µM |  | 70 |
| CNC1C[S+]2CC[S+]3CC[S+](C1)[Ru-4]321([N]=C=S)[n]2c3ccc(OC)cc3c3c4c(c5cc(F)c[n+]1c5c32)C(=O)NC4=O (centres unmarked) | KinomeScan | 0.1 µM | relative to: untreated | 100 |
| Cc1cnc2nc1Nc1cccc(c1)COC/C=C/COCc1cc(ccc1OCCN1CCOCC1)N2 | binding, competition with immobilised ligand | 0.1 µM |  | 100 |
| CC(C)=CC1OC(C)(C)C2C=C3C(=O)C(Cl)=CC(O)C3C3C(O)C4OC4C(=O)C132 (centres unmarked) | cell-free assay, competition with immobilised ligand | 10 µM |  | 52 |
| C=CC(=O)N1CCCC(n2c(=O)c3ncccc3n(Cc3ccc(Oc4ccccc4)cc3)c2=O)C1 (centres unmarked) | cell-free assay, competition with immobilised ligand | 1 µM |  | 94 |
| COc1cc(Nc2nccc(-c3cnn4nc(OC)ccc34)n2)cc(C(F)(F)F)c1 | binding, competition with immobilised ligand | 1 µM |  | 100 |
| Nc1ncc2c(n1)-c1c([nH]c3ccc(C4=CCOCC4)cc13)CCC2 | binding, competition with immobilised ligand | 1 µM |  | 100 |
| COc1cc(Nc2nc(C)cc(-c3cnn4nc(OC)ccc34)n2)cc(C(F)(F)F)c1 | binding, competition with immobilised ligand | 1 µM |  | 89 |
| COc1c(Cl)cccc1Nc1c(-c2ccncc2C#C[C@@]2(C)CCCN2C(=O)/C=C/CN(C)C)[nH]c2c1C(=O)NCC2 | binding, competition with immobilised ligand | 3 µM |  | 91 |
